Experimental data gathered from unrelated publications.
Every numbered part comes from another study and shows a few of its results, in no order. Changes are numbered by the printed parent chain.
Chain of UniProt Q7L7X3 (whole entry, looked up): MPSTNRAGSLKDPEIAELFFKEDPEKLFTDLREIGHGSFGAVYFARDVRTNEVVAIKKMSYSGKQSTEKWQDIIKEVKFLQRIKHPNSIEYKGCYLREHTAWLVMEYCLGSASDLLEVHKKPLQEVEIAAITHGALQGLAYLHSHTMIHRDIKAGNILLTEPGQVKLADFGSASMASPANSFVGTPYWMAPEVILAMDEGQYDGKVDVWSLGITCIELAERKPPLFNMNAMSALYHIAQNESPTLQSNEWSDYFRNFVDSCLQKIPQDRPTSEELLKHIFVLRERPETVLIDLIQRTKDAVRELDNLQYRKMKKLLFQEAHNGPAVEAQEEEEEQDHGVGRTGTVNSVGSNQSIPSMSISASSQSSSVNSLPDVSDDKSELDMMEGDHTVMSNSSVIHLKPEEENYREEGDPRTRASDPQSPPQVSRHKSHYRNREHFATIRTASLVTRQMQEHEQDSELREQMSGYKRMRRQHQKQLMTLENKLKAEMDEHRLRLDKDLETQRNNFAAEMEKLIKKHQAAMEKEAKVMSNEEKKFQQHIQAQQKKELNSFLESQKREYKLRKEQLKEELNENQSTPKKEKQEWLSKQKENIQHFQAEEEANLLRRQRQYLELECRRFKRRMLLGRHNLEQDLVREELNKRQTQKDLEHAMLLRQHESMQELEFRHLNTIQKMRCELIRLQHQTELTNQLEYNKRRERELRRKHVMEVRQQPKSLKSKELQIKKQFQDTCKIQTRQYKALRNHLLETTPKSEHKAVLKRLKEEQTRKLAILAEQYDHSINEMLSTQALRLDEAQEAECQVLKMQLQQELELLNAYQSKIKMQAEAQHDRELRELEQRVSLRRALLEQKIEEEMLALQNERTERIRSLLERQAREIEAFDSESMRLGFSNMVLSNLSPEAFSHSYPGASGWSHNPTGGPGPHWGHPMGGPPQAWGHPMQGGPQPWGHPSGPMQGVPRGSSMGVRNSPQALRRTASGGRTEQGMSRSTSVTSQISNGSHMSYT

Set 1
Target: Interferon regulatory factor 5, full length, phosphomimetic (IRF5, Homo sapiens, UniProt Q13568-2, residues 1-514, K96S/S451D/S453D/S456D/S462D)
Method: protein-binding microarray
Molecule type: double-stranded DNA, one strand shown
Sample: in vitro
Tested at: 250 nM
Setting: 60-bp whole probe
Together with: salmon DNA 0.4 mg/ml
Baseline: random background probes
Reading: higher = stronger binding
Quantity: log fluorescence
All sequences stand within: GCCTAGCAC … GTCTTGATTCGCTTGACGCTGCTG
TTAGGTTTCGGGTTTTGGTTAGTGCTA: 8.11 z-score
TCAAATCTTGAGTTAGAACTGTGCTAG: -0.245 z-score
TTAGGTTTCGACACTGGGTCAGTGCTA: 5.98 z-score
GACGGTTTCGGTTTCAGGACGTGCTAG: 10.2 z-score
TTAGTTATCAGTATCGATTAGTGCTAG: 8.02 z-score
TTTATTTATTTATTTATTTAGTGCTAG: 1.35 z-score
AAACTAGTGTTTTTCTCCTAGTGCTAG: 0.641 z-score
GACGGTATCGCGTATCGGGACGTGCTA: 0.987 z-score

Set 2
Target: Ras GTPase-activating protein-binding protein 1, C-terminal RGG region (G3BP1, Homo sapiens, UniProt Q13283)
Chain of UniProt Q13283 (whole entry, looked up): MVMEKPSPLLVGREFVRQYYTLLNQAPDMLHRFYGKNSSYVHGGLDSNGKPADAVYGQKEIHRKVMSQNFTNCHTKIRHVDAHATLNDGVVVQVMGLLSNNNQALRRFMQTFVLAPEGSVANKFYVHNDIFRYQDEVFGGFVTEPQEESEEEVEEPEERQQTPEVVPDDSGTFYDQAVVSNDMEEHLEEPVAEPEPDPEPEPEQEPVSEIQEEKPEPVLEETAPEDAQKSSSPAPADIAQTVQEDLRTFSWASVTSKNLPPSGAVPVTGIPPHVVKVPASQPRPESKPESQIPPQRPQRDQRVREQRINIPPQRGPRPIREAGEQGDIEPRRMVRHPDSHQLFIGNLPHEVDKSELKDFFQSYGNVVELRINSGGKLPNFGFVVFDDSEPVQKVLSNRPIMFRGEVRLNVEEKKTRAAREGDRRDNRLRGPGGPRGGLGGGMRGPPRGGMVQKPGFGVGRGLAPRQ
Method: RNA Bind-n-Seq
Molecule type: RNA
Sample: in vitro
Tested at: 1 µM
Setting: whole 134-nt RNA, ends assumed
Together with: 150 mM KCl
Baseline: input library
Reading: higher = stronger binding
Quantity: log2 enrichment
All sequences stand within: GGGAGUUCUACAGUCCGACGAUC … UGGAAUUCUCGGGUGUCAAGG
AGUCCUGUGCUACACAUCGUAUGUACCGAAUCGGGUUUUUUUGGGAGGGAAAAAGGGAAAGUAUUAUGUUACGCCGUUCGGAUCUGCACU: 0.778
CUGUGCUACACAUCGUAUGUACCGAAUCGGGUUUUUUUGGUUUUUUUGGGUUUUUUUGGGGAAAGUAUUAUGUUACGCCGUUCGGAUCUG: -1.39
AGUCCUGUGCUACACAUCGUAUGUACCGAAUCGGAAAAGGGGAAAAGGGAAAAGGGGAAAGUAUUAUGUUACGCCGUUCGGAUCUGCACU: -0.437
GCAGGAAGUAAAAACAAAUGGAAAUGCUUCGGAUAGUGGCAGGGGUGGGGGUUGCUAAUGAAAGGGUGGGAUGGGAGUGGGUAAAGAGUU: 2.24
AAGUCCUGUGCUACACAUCGUAUGUACCGAAUCGGGGUUUUGGUUUUGGGUUUUGGGAAAGUAUUAUGUUACGCCGUUCGGAUCUGCACU: -1.1
AGUCCUGUGCUACACAUCGUAUGUACCGAAUCGGGAAAGGGUUUUUGGGAAAAAGGGAAAGUAUUAUGUUACGCCGUUCGGAUCUGCACU: -0.0302
CUGUGCUACACAUCGUAUGUACCGAAUCGGGGCCCCCCCGGGCCCCCCCGGCCCCCCCGGGGAAAGUAUUAUGUUACGCCGUUCGGAUCU: -2.33
AGUCCUGUGCUACACAUCGUAUGUACCGAAUCGGCCCCCCGGCCCCCCGGCCCCCCGGAAAGUAUUAUGUUACGCCGUUCGGAUCUGCAC: -1.61

Set 3
Target: CREB3L3, bZIP domain (human)
Method: DHFR protein complementation
Sample: yeast
Setting: single substitutions, most at no-binding floor
Baseline: wild-type JUN-FOS pair
Reading: higher = stronger binding
Quantity: binding fitness
Starting sequence: JUN, bZIP domain (human); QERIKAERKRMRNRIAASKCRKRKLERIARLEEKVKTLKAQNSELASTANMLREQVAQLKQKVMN; partner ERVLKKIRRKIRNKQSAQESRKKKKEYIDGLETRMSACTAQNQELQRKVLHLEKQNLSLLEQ
Q41N: -1.55 natural log
K34H: -1.42 natural log
R30P: -1.46 natural log
E54L: -1.48 natural log
A40G: -1.49 natural log
K34S: -1.5 natural log
N42E: -1.43 natural log
E54R: -1.49 natural log

Further values, each from its own experiment
CCC(=O)N[C@@H]1CC[C@H](C(=O)N(C)c2ccc(-c3nc4ccccc4o3)cc2)C1 — remaining binding (Serine/threonine-protein kinase TAO1 (TAOK1, Homo sapiens, UniProt Q7L7X3); cell-free assay, competition with immobilised ligand; 1 µM): 97%

Some of these lines once more (further values, each from its own experiment):
CCC(=O)N[C@@H]1CC[C@H](C(=O)N(C)c2ccc(-c3nc4ccccc4o3)cc2)C1 — remaining binding (Serine/threonine-protein kinase TAO1 (TAOK1, Homo sapiens, UniProt Q7L7X3); cell-free assay, competition with immobilised ligand; 1 µM): 97%
